Measurements from different studies.
Parts stem from different laboratories: compare values within a part only. Changes are numbered by the printed parent chain.

Series 1
Target: CDC34 UBC core domain (UniProt P49427)
Technique: yeast two-hybrid
Matrix: yeast
Notes: mostly zero background
Relative to: not given
Direction: higher = stronger interaction
B1: MEX3B RING domain (UniProt Q6ZN04); chain SGLRRKGSRDCSVCFESEVIAALVPCGHNLFCMECANRICEKSEPECPVCHTAVTQAIRIF
B2: TRIM60 RING domain (UniProt Q495X7); chain ALVNLQEESSCPICLEYLKDPVTINCGHNFCRSCLSVSWKDLDDTFPCPVCRFCFPYKSFRR
B3: TRIM26 RING domain (UniProt Q12899); chain PLRSLEEEVTCSICLDYLRDPVTIDCGHVFCRSCTTDVRPISGSRPVCPLCKKPFKKENIRP
B4: RNF166 RING domain (UniProt Q96A37); chain GDSGLEAQYTCPICLEVYHRPVAIGSCGHTFCGECLQPCLQVPSPLCPLCRLPFDPKKVDK
B5: TRIM31 RING domain (UniProt Q9BZY9); chain FVNKLQEEVICPICLDILQKPVTIDCGHNFCLKCITQIGETSCGFFKCPLCKTSVRKNAIRF
B6: TRIM37 RING domain (UniProt O94972); chain SVESIAEVFRCFICMEKLRDARLCPHCSKLCCFSCIRRWLTEQRAQCPHCRAPLQLRELVN
B7: TRIM22 RING domain (UniProt Q8IYM9); chain VKVDIEKEVTCPICLELLTEPLSLDCGHSFCQACITAKIKESVIISRGESSCPVCQTRFQPGNLRP
B8: MYCBP2 RING domain (UniProt O75592); chain TSLKQDADDMCMICFTEALSAAPAIQLDCSHIFHLQCCRRVLENRWLGPRITFGFISCPICKNKINHIVLKD
B9: RNF152 RING domain (UniProt Q8N8N0); chain ETLSQDSLLECQICFNYYSPRRRPKLLDCKHTCCSVCLQQMRTSQKDVRCPWCRGVTKLPPGFS
B10: DEF8 RING domain (UniProt Q6ZN54); chain AGRLGCSLTEIHTLFAKHIKLDCERCQAKGFVCELCREGDVLFPFDSHTSVCADCSAVFHRDCYYDNSTTCPKCARLSLRK
Construct (chain): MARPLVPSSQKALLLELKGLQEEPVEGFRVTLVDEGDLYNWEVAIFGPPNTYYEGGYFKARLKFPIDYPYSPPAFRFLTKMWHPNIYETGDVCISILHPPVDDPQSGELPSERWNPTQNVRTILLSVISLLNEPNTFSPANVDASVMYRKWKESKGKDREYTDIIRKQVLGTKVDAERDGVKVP
`B1 (MEX3B RING domain)` — result for “lacZ reporter activity”: 0.
`B2 (TRIM60 RING domain)`: “lacZ reporter activity” 0.
For `MNDVLENELQCIICSEYFIEAVTLNCAHSFCSYCINEWMKRKIECPICRKDIKSKTYSL (RNF8 RING domain (UniProt O76064))`, “lacZ reporter activity” read 0.
Under “lacZ reporter activity”, `B3 (TRIM26 RING domain)` is recorded as 0.
`PEELAVNNDDCAICWDSMQAARKLPCGHLFHNSCLRSWLEQDTSCPTCRMSLNIADNNR (AMFR RING domain (UniProt Q9UKV5))`: “lacZ reporter activity” 0.
For `B4 (RNF166 RING domain)`, “lacZ reporter activity” read 0.
`B5 (TRIM31 RING domain)` — result for “lacZ reporter activity”: 0.
`B6 (TRIM37 RING domain)` — result for “lacZ reporter activity”: 0.
Under “lacZ reporter activity”, `LDAASGHPLVCPLCHGQYERPCLLDCFHDFCTGCLRGRATDGRLSCPLCQHQTLVKGPSG (Rnf207 RING domain (UniProt Q3V3A7))` is recorded as 0.
`B7 (TRIM22 RING domain)`: “lacZ reporter activity” 0.
`RYRQMEERITCPICIDSHIRLVFQCGHGACAPCGSALSACPICRQPIRDRIQIF (MIB2 RING domain (UniProt Q96AX9))` — result for “lacZ reporter activity”: 0.
`B8 (MYCBP2 RING domain)` — result for “lacZ reporter activity”: 0.
`B9 (RNF152 RING domain)` — result for “lacZ reporter activity”: 0.
Under “lacZ reporter activity”, `B10 (DEF8 RING domain)` is recorded as 0.

Series 2
Target: ABI1, truncated, D143A, DHFR fusion (Arabidopsis thaliana)
Technique: DHFR PCA, deep sequencing
Matrix: yeast
Notes: methotrexate growth selection, single substitutions
Added: (+)-ABA 0.39 µM
Relative to: wild-type fitted maximum
Direction: higher = stronger binding
Starting sequence: PYL1, truncated, DHFR fusion (Arabidopsis thaliana); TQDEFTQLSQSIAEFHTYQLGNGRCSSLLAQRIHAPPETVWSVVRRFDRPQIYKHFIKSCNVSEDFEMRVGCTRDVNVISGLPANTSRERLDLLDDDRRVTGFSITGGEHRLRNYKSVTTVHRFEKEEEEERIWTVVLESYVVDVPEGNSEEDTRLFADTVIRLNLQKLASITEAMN
For `L82R`, “relative binding score” read 5.01%.
`Q19R`: “relative binding score” 41.5%.
For `S140G`, “relative binding score” read 4.64%.
Under “relative binding score”, `Q2K` is recorded as 39.1%.
For `R88Q`, “relative binding score” read 46.6%.
`R123A`: “relative binding score” 66.5%.
Under “relative binding score”, `H110C` is recorded as 17.7%.
For `E151N`, “relative binding score” read -13%.
For `F15R`, “relative binding score” read -7.75%.
For `Y141T`, “relative binding score” read -5.87%.
`T154I`: “relative binding score” 3.17%.
`N177M` — result for “relative binding score”: 47.7%.
`A170D`: “relative binding score” 9.45%.
`E4W` — result for “relative binding score”: 34.5%.
`L156A` — result for “relative binding score”: 36.1%.
For `S59E`, “relative binding score” read 46.9%.
`N85E` — result for “relative binding score”: 65.6%.
`E131F` — result for “relative binding score”: 23.6%.
For `Q2D`, “relative binding score” read 48%.
`D48P`: “relative binding score” -5.56%.
For `S27F`, “relative binding score” read -4.05%.

Series 3
Partner: ARF20 484-590 (Arabidopsis thaliana, UniProt Q9C7I9)
Technique: two-hybrid
Relative to: out of 4 tests
Direction: higher = firmer interaction
B11: ARF10 575-693 (Arabidopsis thaliana, UniProt Q9SKN5); chain LQGLETGHCKVFMESEDVGRTLDLSVIGSYQELYRKLAEMFHIEERSDLLTHVVYRDANGVIKRIGDEPFSDFMKATKRLTIKMDIGGDNVRKTWITGIRTGENGIDASTKTGPLSIFA
B12: ARF19 948-1086 (Arabidopsis thaliana, UniProt Q8RYC8); chain GLWPNQTQRMRTYTKVQKRGSVGRSIDVTRYSGYDELRHDLARMFGIEGQLEDPLTSDWKLVYTDHENDILLVGDDPWEEFVNCVQNIKILSSVEVQQMSLDGDLAAIPTTNQACSETDSGNAWKVHYEDTSAAASFNR
B13: IAA19 (Arabidopsis thaliana, UniProt O24409); chain MEKEGLGLEITELRLGLPGRDVAEKMMKKRAFTEMNMTSSGSNSDQCESGVVSSGGDAEKVNDSPAAKSQVVGWPPVCSYRKKNSCKEASTTKVGLGYVKVSMDGVPYLRKMDLGSSQGYDDLAFALDKLFGFRGIGVALKDGDNCEYVTIYEDKDGDWMLAGDVPWGMFLESCKRLRIMKRSDATGFGLQPRGVDE
B14: ARF11 500-622 (Arabidopsis thaliana, UniProt Q9ZPY6); chain SPKEQKQQTSTRSRIKVQMQGTAVGRAVDLTLLRSYDELIKELEKMFEIEGELSPKDKWAIVFTDDEGDRMLVGDDPWNEFCKMAKKLFIYPSDEVKKMRSKSLLGDKGTIVNLESDQRTVHV
B15: ARF1 538-665 (Arabidopsis thaliana, UniProt Q8L7G0); chain SRQIRSCTKVHMQGSAVGRAIDLTRSECYEDLFKKLEEMFDIKGELLESTKKWQVVYTDDEDDMMMVGDDPWNEFCGMVRKIFIYTPEEVKKLSPKNKLAVNARMQLKADAEENGNTEGRSSSMAGSR
Construct (chain): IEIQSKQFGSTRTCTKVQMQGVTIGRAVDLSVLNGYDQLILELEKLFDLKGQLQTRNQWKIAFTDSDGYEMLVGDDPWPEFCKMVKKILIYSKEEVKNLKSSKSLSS
`B11 (ARF10 575-693)` gave a positive tests of 0.
`B12 (ARF19 948-1086)` has a positive tests of 2.
With `B13 (IAA19)` the positive tests was 1.
With `B14 (ARF11 500-622)` the positive tests was 0.
For `B15 (ARF1 538-665)`, the positive tests was 0.

Series 4
Target: CCNE2, cyclin fold, Cln2 fusion (human)
Technique: yeast growth competition, sequencing
Matrix: yeast
Notes: weak parent motif
Relative to: not given
Direction: higher = stronger binding
Starting sequence: MICAL3 docking peptide (human); LQLRRQLSFSEDS
`LQLRRQLSFSHDS [E11H]` — result for “normalised enrichment score”: 0.163.
For `LQLRRQLSFSGDS [E11G]`, “normalised enrichment score” read 0.656.
Under “normalised enrichment score”, `LQLRRQLSFTEDS [S10T]` is recorded as 0.144.
For `LQLRRQNSFSEDS [L7N]`, “normalised enrichment score” read 0.0175.
Under “normalised enrichment score”, `LQERRQLSFSEDS [L3E]` is recorded as 0.0784.
Under “normalised enrichment score”, `LQLRNQLSFSEDS [R5N]` is recorded as 0.596.
`LQLRRQLYFSEDS [S8Y]` — result for “normalised enrichment score”: 0.507.
For `LQLRRRLSFSEDS [Q6R]`, “normalised enrichment score” read 0.595.
`LQLRRQLSFREDS [S10R]`: “normalised enrichment score” 0.328.
For `LQLRRQLSFSYDS [E11Y]`, “normalised enrichment score” read 0.623.
Under “normalised enrichment score”, `LQLRRNLSFSEDS [Q6N]` is recorded as 0.349.
`LHLRRQLSFSEDS [Q2H]`: “normalised enrichment score” 0.262.
Under “normalised enrichment score”, `LQLRRQDSFSEDS [L7D]` is recorded as -0.124.
For `LQLRRQLSFSELS [D12L]`, “normalised enrichment score” read 0.825.
`LQLRCQLSFSEDS [R5C]` — result for “normalised enrichment score”: 0.223.
`LQLRRQLSCSEDS [F9C]`: “normalised enrichment score” 0.0983.
`LQKRRQLSFSEDS [L3K]`: “normalised enrichment score” 0.0398.
Under “normalised enrichment score”, `LQLRRYLSFSEDS [Q6Y]` is recorded as 0.59.
`LQLRRQWSFSEDS [L7W]` — result for “normalised enrichment score”: 0.294.
`LQLRRQLSGSEDS [F9G]`: “normalised enrichment score” 0.184.
`LQLRRQLAFSEDS [S8A]`: “normalised enrichment score” 0.204.
For `LPLRRQLSFSEDS [Q2P]`, “normalised enrichment score” read 0.666.
Under “normalised enrichment score”, `LCLRRQLSFSEDS [Q2C]` is recorded as 0.484.
`LQLRRQLSFSERS [D12R]`: “normalised enrichment score” 0.318.
For `LQLRRQLSQSEDS [F9Q]`, “normalised enrichment score” read 0.429.
